Measurements of several laboratories.
Lines come from different studies, so protocols differ.
Cell line: PC-3

SMILES	assay	setting	how to read	endpoint	value
CCN(CC)c1ccc(C=NNC(=O)CSc2nc3ccccc3c(=O)n2Cc2ccc(S(N)(=O)=O)cc2)c(O)c1	NCI five-dose screen			CC50	> 100000 nM
COc1c(CCC[P+](c2ccccc2)(c2ccccc2)c2ccccc2)cc2c(c1OC)OCO2.[I-]	SRB			TGI	-4.65 log M
COc1c(C)c2c(c(O)c1C/C=C(\C)CCC(=O)O)C(=O)OC2	cell proliferation			IC50	1510 nM
CC(C)N1CCC(NC2CCN(c3cccc(-c4cc5cc(F)ccc5[nH]4)c3)CC2)CC1				GI50	1670 nM
COc1cc(CCC[P+](c2ccccc2)(c2ccccc2)c2ccccc2)c(OC)c2c1OCO2.[I-]	SRB			TGI	> -4 log M
O=C1CCP(=S)(c2ccccc2)CC1	annexin V/PI flow cytometry	IC50, 72 h		necrotic cells	0.25%
Cn1cncc1C1=CN(c2ncnc3[nH]cnc23)CCS1		prostate cancer		CC50	> 200000 nM
COc1cccc2c1C(=O)c1c(O)c3c(c(O)c1C2=O)C[C@@](O)(C(=O)CO)C[C@@H]3O[C@H]1C[C@H](N)[C@H](O)[C@H](C)O1	SRB	10 µg/mL, 48 h	negative values mean cell killing	growth percent	-25.3%
S=P1(c2ccccc2)CCCCC1	MTT	72 h	relative to: IC50 HaCaT over IC50 PC-3	selectivity index	1
CN1CCN(C2(CNC3CCN(c4cccc(-c5cc6cc(F)ccc6[nH]5)c4)CC3)CCC2)CC1				GI50	1730 nM

Excerpt of the above:
SMILES	assay	setting	how to read	endpoint	value
COc1c(CCC[P+](c2ccccc2)(c2ccccc2)c2ccccc2)cc2c(c1OC)OCO2.[I-]	SRB			TGI	-4.65 log M
